Literature values as cited in several papers.
Each line is one published result; not all experiments were run side by side.

Structure (SMILES)	target	test	test system	conditions	how to read	endpoint	result
COc1ccccc1Oc1cccc(CN2CCC3(CC2)C(=O)NCN3CCc2ccccc2)c1	human CCR8 F123A mutant (TM3)	IP accumulation, agonist	–	–	–	EC50	0.007 µM
C[C@@H](N)C1CCN(S(=O)(=O)c2cccc3c(=O)[nH]ccc23)CC1	ROCK2 over ROCK1	–	–	–	baseline: ROCK1 over ROCK2 potency	selectivity ratio	~17 fold
Cc1cc(NC(=O)c2cccc(NC(=O)/C=C/CN(C)C)c2)ccc1Nc1nccc(-c2cccnc2)n1	p38	–	–	1 µM	baseline: control	remaining activity	20%
O=C(O)C(=O)O	anion exchanger, human	substrate	neutrophils	–	–	Km	> 95 mM
CCC(CC)C(=O)O	HDAC	enzyme activity, inhibitor	–	day 4, unbound medium concentration	–	EC10	4500 µM
Cc1cccc(Nc2cc(Cl)nc(SCC(=O)O)n2)c1C	human PPARalpha T279M	agonist	–	concentration not given	baseline: wild type	agonist activity	increased
CCCC(CCC)C(=O)O	HDAC	enzyme activity, inhibitor	–	day 10, unbound medium concentration	–	EC10	27 µM
O=C1NC(=O)c2c1c1c3ccccc3[nH]c1n1cncc21	CSNK1E	kinase activity, inhibitor	–	0.5 µM	–	inhibition	81%
CC(C)(C)c1cc(C(C)(C)C)c(NC(=O)c2c[nH]c3ccccc3c2=O)cc1O	CFTR	potentiator	–	–	–	EC90	0.7 µM
COc1ccccc1Oc1cccc(CN2CCC(NC(=O)C(CCN3CCCC3)c3ccccc3)CC2)c1 (stereo not shown)	human CCR8 L168D mutant (TM4)	IP accumulation, agonist	–	–	–	EC50	0.028 µM
Nc1ccn([C@H]2C[C@H](O)[C@@H](CO)O2)c(=O)n1	cytidine deaminase (human)	substrate	–	concentration not given, 37 °C	–	Vmax	45.5 U/mg
O=C(Nc1nc2ccccc2[nH]1)c1ccccc1	TWEAK-Fn14 interaction	–	–	10 µM, PubChem AID 1159606	–	response	79%
COc1ccccc1Oc1cccc(CN2CCC(NC(=O)C3CC(=O)Nc4ccccc43)CC2)c1 (stereo not shown)	human CCR8 Y113A mutant (TM3)	IP accumulation, agonist	–	–	–	EC50	> 10 µM
Nc1ccc(C(=O)NCC(=O)O)cc1	anion exchanger, human	substrate	neutrophils	–	–	Km	50.3 mM
COc1cc(Nc2c(C#N)cnc3cc(OCCCN4CCN(C)CC4)c(OC)cc23)c(Cl)cc1Cl	CSNK1G1	kinase activity, inhibitor	–	0.5 µM	–	inhibition	4%
NC1(C(=O)N[C@@H](CCO)c2ccc(Cl)cc2)CCN(c2nc[nH]c3nccc2-3)CC1	Akt	item: phosphorylated Akt substrates	mouse BT-474 xenograft, tumour	100 mg/kg	–	time to peak suppression	4 h
C=CCCC(=O)O	HDAC	enzyme activity, inhibitor	–	day 10, unbound medium concentration	–	EC10	30 µM
c1cc(-c2cnn3cc(-c4ccc(OCCN5CCCCC5)cc4)cnc23)ccn1	CSNK1G1	kinase activity, inhibitor	–	0.5 µM	–	inhibition	11%
CC(C)(O/N=C(\C(=O)N[C@@H]1C(=O)N2C(C(=O)[O-])=C(C[N+]3(CCNC(=O)c4ccc(O)c(O)c4Cl)CCCC3)CS[C@H]12)c1csc(N)n1)C(=O)O	NDM-9	hydrolysis by enzyme, substrate	–	–	–	kcat	7 s⁻¹
CCN(CC)CCCCNc1ncc2cc(-c3cc(OC)cc(OC)c3)c(NC(=O)NC(C)(C)C)nc2n1	c-KIT	inhibitor	–	–	–	IC50	> 1 µM

Structure (SMILES)	target	test	test system	conditions	how to read	endpoint	result
NC(=O)C1=CN([C@@H]2O[C@H](COP(=O)(O)OP(=O)(O)OC[C@H]3O[C@@H](n4cnc5c(N)ncnc54)[C@H](O)[C@@H]3O)[C@@H](O)[C@H]2O)C=CC1	ADH1 H48S Saccharomyces cerevisiae	enzyme activity, substrate	–	pH 7.3, 30 °C	–	Km	0.11 mM
CC(C)[C@H](CO)Nc1nc(Nc2cc(N)cc(Cl)c2)c2ncn(C(C)C)c2n1	CSNK1D	kinase activity, inhibitor	–	0.5 µM	–	inhibition	34%
CCNS(=O)(=O)c1ccc(OC)cc1C1(O)CCN(Cc2cccc(Oc3ccccc3OC)c2)CC1	human CCR8 Y113A mutant (TM3)	IP accumulation, agonist	–	–	–	EC50	> 10 µM
CCCCCC(CCC)C(=O)O (stereo not shown)	HDAC	enzyme activity, inhibitor	–	day 4, unbound medium concentration	–	EC10	17 µM
CCNC(=O)C1CC(C)CCC1C(C)C (stereo not shown)	TRPM8 human	–	–	–	–	EC50	3.7 µM
CCCC(C)(C)C(=O)O	HDAC	enzyme activity, inhibitor	–	day 10, unbound medium concentration	–	EC10	3050 µM
Nc1ccn([C@@H]2O[C@H](CO)[C@@H](O)[C@H]2F)c(=O)n1	cytidine deaminase (human)	substrate	–	concentration not given, 37 °C	–	Vmax	146 U/mg
C=CCC(CCC)C(=O)O (stereo not shown)	HDAC	enzyme activity, inhibitor	–	day 4, unbound medium concentration	–	EC10	253 µM
CC(C)[C@H](CO)Nc1nc(Nc2cccc(Cl)c2)c2ncn(C(C)C)c2n1	CSNK1D	kinase activity, inhibitor	–	concentration not given	–	inhibition	26%
CCOCC1(COCC)CCC(c2n[nH]cc2CN(C)CCNC)CC1	PRMT6	–	–	–	–	IC50	0.0047 µM
COc1ccccc1Oc1cccc(CN2CCC(O)(c3ccccc3C(=O)O)CC2)c1	human CCR8 S110W mutant (TM3)	IP accumulation, agonist	–	–	–	EC50	> 10 µM
Oc1ccc(-c2nc(-c3ccncc3)c(-c3ccc(F)cc3)[nH]2)cc1	CSNK1G1	kinase activity, inhibitor	–	0.5 µM	–	inhibition	3%
CC(C)Oc1ccc(-c2c[nH]cc2CN(C)CCN)cc1	PRMT6	enzyme activity, inhibitor	–	–	baseline: PRMT1 IC50 over PRMT6 IC50	selectivity ratio	6 fold
CC(C)n1cnc2c(Nc3cccc(Cl)c3)nc(NCCO)nc21	CSNK1D	kinase activity, inhibitor	–	0.5 µM	–	inhibition	51%
CC(O)C(C)n1ncn(-c2ccc(N3CCN(c4ccc(OCC5COC(Cn6cncn6)(c6ccc(Cl)cc6Cl)O5)cc4)CC3)cc2)c1=O (stereo not shown)	CYP3A4	–	–	–	–	kcat	0.000333 s⁻¹
CCCC(C)C(=O)O (stereo not shown)	HDAC	enzyme activity, inhibitor	–	day 4, unbound medium concentration	–	EC10	7080 µM
Nc1nc(Nc2ccc(S(N)(=O)=O)cc2)n(C(=S)Nc2c(F)cccc2F)n1	CSNK1D	kinase activity, inhibitor	–	0.5 µM	–	inhibition	16%
CNC(=O)c1c(C)oc2cc(Oc3ncnc4cc(OC)c(OC)cc34)ccc12	VEGFR-2 mouse	VEGFR-2 phosphorylation	mouse	oral, 2.5 mg/kg single dose	–	duration of inhibition	> 8 h
Cc1onc(-c2ccccc2)c1-c1ccc(S(N)(=O)=O)cc1	NR4A1 (Nur77)	cellular	–	concentration not given	–	activity	inactive
CN(CC(=O)Nc1ccc(F)c(F)c1F)C(=O)c1ccc2c(c1)OCCO2	ABCA1	–	–	–	–	EC50	> 1 µM

Repeated from above:
Structure (SMILES)	target	test	test system	conditions	how to read	endpoint	result
O=C(O)C(=O)O	anion exchanger, human	substrate	neutrophils	–	–	Km	> 95 mM
CC(C)[C@H](CO)Nc1nc(Nc2cc(N)cc(Cl)c2)c2ncn(C(C)C)c2n1	CSNK1D	kinase activity, inhibitor	–	0.5 µM	–	inhibition	34%
CCN(CC)CCCCNc1ncc2cc(-c3cc(OC)cc(OC)c3)c(NC(=O)NC(C)(C)C)nc2n1	c-KIT	inhibitor	–	–	–	IC50	> 1 µM
Nc1ccn([C@H]2C[C@H](O)[C@@H](CO)O2)c(=O)n1	cytidine deaminase (human)	substrate	–	concentration not given, 37 °C	–	Vmax	45.5 U/mg
COc1ccccc1Oc1cccc(CN2CCC3(CC2)C(=O)NCN3CCc2ccccc2)c1	human CCR8 F123A mutant (TM3)	IP accumulation, agonist	–	–	–	EC50	0.007 µM
C=CCCC(=O)O	HDAC	enzyme activity, inhibitor	–	day 10, unbound medium concentration	–	EC10	30 µM
